Measured values from different studies.

Compound | assay | test system | setting | scale | quantity | value
C=CC(=O)N1CCC[C@@H](n2nc(-c3ccc(Oc4ccccc4)cc3)c3c(N)ncnc32)C1 | phase solubility |  | 72 h, room temperature, added: hydroxypropyl-beta-cyclodextrin |  | stability constant | 217 M⁻¹
O=C(N/N=C/c1ccccc1O)c1ccncc1 |  | rat plasma | 23 µM, 12 h, 5 °C, post-preparative |  | stability | 97.6%
O=C(NCCN1CCCC1)c1cc(-c2ccc(CN3CCOCC3)cc2)nc2ccc(F)cc12 |  | human whole blood | ambient |  | stability duration | 1 h
CCN(CC)Cc1ccc2cc(COC(=O)Nc3ccc(C(=O)NO)cc3)ccc2c1 |  | rat plasma | 5 ng/mL, 4 h, 10 °C, autosampler | relative to: nominal concentration | stability relative error | 99.1%
COC(=O)/C=C/c1cc(C(=O)NCc2ccc(C)cc2)cc(-c2ccc3ncnn3c2)c1 |  | simulated gastric fluid | 1 h |  | stability | stable
CCOc1c([C@H](C)n2nc(C)c3c(N)ncnc32)cc(Cl)c(F)c1[C@@H]1CNC(=O)C1 |  | rat plasma | 800 ng/mL, 3 weeks, -80 °C, frozen storage | relative to: nominal concentration | stability relative error | 3.5%
CCC[C@H](N[C@@H](C)C(=O)N1[C@H](C(=O)O)C[C@@H]2CCCC[C@@H]21)C(=O)O |  | human whole blood | 0.5 ng/mL, 30 h, 8 °C, autosampler, low QC |  | stability | 95.1%
C1=C/COCc2cc(ccc2OCCN2CCCC2)Nc2nccc(n2)-c2cccc(c2)COC/1 |  | rat plasma | 1200 ng/mL, 24 h, 4 °C | relative to: nominal concentration | stability relative error | -1.64%
CC(=O)N[C@H]1[C@H]([C@H](O)[C@H](O)CO)OC(C(=O)O)=C[C@@H]1N=C(N)N |  | HBSS | room temperature |  | stability time | ≥ 36 h
Cc1c2c(c(O)c3c(OC(=O)c4ccccn4)cccc13)C(=O)[C@]1(O)C(=O)C(C(N)=O)=C(O)[C@@H](N(C)C)[C@@H]1C2 | LC-MS | Escherichia coli cell lysate |  |  | stability time | ≥ 16 h

A few entries again:
Compound | assay | test system | setting | scale | quantity | value
O=C(NCCN1CCCC1)c1cc(-c2ccc(CN3CCOCC3)cc2)nc2ccc(F)cc12 |  | human whole blood | ambient |  | stability duration | 1 h
